{"data": "Measurements pooled from the literature", "note": "Lines come from different studies, so protocols differ. ± marks the error that the study gave."}
{"SMILES": "CCOP(=O)(CC(=O)Nc1ccc(S(=O)(=O)N(CC(N)=O)c2ccc(N(CC(N)=O)S(=O)(=O)c3ccc(OC)cc3)c3ccccc23)cc1)OCC", "assay": "Nissl staining", "test system": "APP/PS1 mice, hippocampus CA1, CA3, DG", "setting": "40 mg/kg", "how to read": "reference: untreated APP/PS1", "measurement": "dead neuron number", "result": "decreased"}
{"SMILES": "Cc1ccc(/C=C/C(=O)O)cc1-c1cc2c(cc1C)C(C)(C)CCC2(C)C", "assay": "RNA sequencing, measured: Dlx2 mRNA", "test system": "rat, brain", "setting": "dose not given, 24 h, single dose", "how to read": "reference: vehicle", "measurement": "log2 fold change", "result": 1.18}
{"SMILES": "Cc1cc(O)cc(C)c1CC(N)C(=O)NC1CCNc2c(F)cc(Cc3ccccc3)cc21 (centres unmarked)", "assay": "warm water tail withdrawal", "test system": "male C57BL/6 mouse", "setting": "ip, 1, 3.2, 10 mg/kg cumulative", "measurement": "antinociception", "result": "inactive"}
{"SMILES": "CC[C@H](C)[C@H](NC(=O)[C@H](CCCCN)NC(=O)CNC(=O)[C@H](CC(C)C)NC(=O)[C@@H](NC(=O)[C@H](C)NC(=O)[C@H](CCCCN)NC(=O)CNC(=O)[C@H](C)NC(=O)CNC(=O)[C@H](CCCCN)NC(=O)[C@H](CCSC)NC(=O)[C@H](CCCCN)NC(=O)[C@@H](NC(=O)[C@H](Cc1c[nH]c2ccccc12)NC(=O)[C@H](CC(C)C)NC(=O)[C@H](CCC(N)=O)NC(=O)[C@H](CCCCN)NC(=O)[C@H](CC(C)C)NC(=O)[C@@H](N)CC(C)C)[C@@H](C)O)C(C)C)C(=O)N[C@@H](CCCCN)C(=O)NCC(=O)N[C@@H](CC(C)C)C(=O)N[C@@H](CC(C)C)C(=O)O", "assay": "calcein release", "test system": "PC-containing vesicles, 200 µM lipid", "setting": "15 µM, 1 h", "how to read": "reference: Triton X-100", "measurement": "calcein leakage", "result": "~15%"}
{"SMILES": "C[C@]12CC[C@H](O)CC1CCC1C2[C@H](O)C(=O)[C@]2(C)[C@@H](c3ccc(=O)oc3)CC[C@]12O (some centres unmarked)", "assay": "sulfation, substrate", "test system": "pig liver cytosol", "measurement": "Vmax", "result": "0.035 ± 0.001 nmol/min/mg"}
{"SMILES": "CS(C)(=O)=Nc1ccc(-c2ccc(-c3nc4cc(O[C@@H]5CO[C@H]6[C@@H]5OC[C@H]6O)[nH]c4cc3F)cc2)cc1", "test system": "ob/ob mouse, AMLN diet NASH model", "setting": "oral, 5 mg/kg daily, 8 weeks", "how to read": "reference: vehicle", "measurement": "plasma cholesterol", "result": "no effect"}
{"SMILES": "O=C(/C=C/c1ccc(O)cc1)OC[C@H]1O[C@@H](Oc2cc(O)c3c(=O)cc(-c4ccc(O)cc4)oc3c2)[C@H](O)[C@@H](O)[C@@H]1O", "assay": "ABTS scavenging, absorbance", "setting": "15 min", "measurement": "IC50", "result": "42.6 µM"}
{"SMILES": "O=C1N[C@@H](Cc2ccccc2)C(=O)N2CCC[C@@H]2C(=O)N[C@@H](Cc2ccccc2)C(=O)N[C@H]1Cc1c[nH]c2ccccc12", "assay": "agonist", "test system": "C57BL/6J mouse", "setting": "10 nmol", "measurement": "duration of antinociceptive activity", "result": "≤ 100 min"}
{"SMILES": "Cc1cc(O)cc(C)c1CC(N)C(=O)NC1CCNc2c(Cc3ccccc3)cc(Cc3ccccc3)cc21 (centres unmarked)", "assay": "warm water tail withdrawal", "test system": "male C57BL/6 mice", "setting": "intraperitoneal, 10 mg/kg", "measurement": "antinociception", "result": "inactive"}
{"SMILES": "Cc1cnc(Nc2ccc(C3CCN(C)CC3)c(F)c2)nc1Nc1ccc(Cl)c(NS(=O)(=O)C(C)(C)C)c1", "test system": "U-266 multiple myeloma, ULK3 knockdown, mice, U-266 xenograft", "setting": "subcutaneous, 10 mg/kg/day, Mon-Fri from day 20", "measurement": "median survival", "result": "87 days"}
{"SMILES": "CCN(Cc1ccccc1)C(=O)CCc1nc(CN2CCN(C(=O)Cc3ccc(OC)c(OC)c3)CC2)no1", "assay": "current clamp", "test system": "L4-L6 DRG neurons, rat CCI model", "setting": "3 µM, added: 500 pA current injection", "measurement": "action potential threshold", "result": "-7.14 ± 2.34 mV"}
{"SMILES": "CC(C)C[C@@H]1NC(=O)[C@@H](Cc2c[nH]c3ccccc23)NC(=O)[C@H](CCCNC(=N)N)NC(=O)[C@@H](CCC(=O)O)NC(=O)[C@H](CCC(N)=O)NC(=O)[C@@H](CCC(=O)O)NC(=O)[C@H](CCCNC(=N)N)NC(=O)[C@@H](Cc2c[nH]c3ccccc23)NC1=O", "test system": "mouse BALB/c", "setting": "intraperitoneal, 20 mg/kg", "measurement": "duration of effect", "result": "≤ 8 h"}
{"SMILES": "CC[C@H](C)[C@H](NC(=O)[C@H](C)NC(=O)CNC(=O)[C@@H](N)CCSC)C(=O)N[C@@H](C)C(=O)N[C@@H](CCCCN)C(=O)N[C@@H](CC(C)C)C(=O)N[C@H](C(=O)N[C@@H](C)C(=O)N[C@@H](CCCCN)C(=O)N[C@@H](Cc1ccccc1)C(=O)NCC(=O)N[C@@H](Cc1c[nH]c2ccccc12)C(=O)N1CCC[C@H]1C(=O)N[C@@H](CCCNC(=N)N)C(=O)N[C@H](C(=O)N[C@@H](CCCCN)C(=O)N[C@@H](CCCCN)C(=O)N[C@@H](Cc1ccccc1)C(=O)N[C@@H](Cc1ccc(O)cc1)C(=O)N[C@@H](CCCCN)C(=O)N[C@@H](CCC(N)=O)C(=O)N[C@H](C(=O)N[C@@H](CCSC)C(=O)N[C@@H](CCC(N)=O)C(=O)N[C@@H](Cc1ccccc1)C(=O)N[C@H](C(=O)NCC(=O)N[C@@H](CCC(N)=O)C(=O)NCC(=O)N[C@@H](Cc1c[nH]c2ccccc12)C(=O)N[C@H](C(=O)N[C@H](C(=O)N[C@@H](CC(=O)O)C(=O)N[C@@H](CCC(N)=O)C(=O)N[C@H](C(=O)N[C@@H](CCC(=O)O)C(=O)N[C@@H](CCCCN)C(=O)N[C@@H](Cc1c[nH]c2ccccc12)C(=O)N[C@@H](CC(C)C)C(=O)N[C@@H](CCCCN)C(=O)N[C@@H](CCCNC(=N)N)C(=O)N[C@@H](Cc1c[nH]cn1)C(=O)O)[C@@H](C)CC)[C@@H](C)CC)[C@@H](C)O)[C@@H](C)CC)[C@@H](C)CC)[C@@H](C)CC)C(C)C", "test system": "PG/PE 1:1 liposomes", "setting": "MIC", "how to read": "reference: Triton X-100", "measurement": "calcein release", "result": "33.4%"}
{"SMILES": "COC[C@@H](NC(C)=O)C(=O)NCc1ccc(OCc2ccc(OC(F)(F)F)cc2)cc1", "assay": "formalin test, phase I", "test system": "mouse", "setting": "ip, 8.0 mg/kg", "how to read": "reference: vehicle", "measurement": "licking time", "result": "66%"}
{"SMILES": "CCCCCCCCCCCCCCCC(=O)N[C@@H](CCC(=O)NCCOCCOCCC(=O)NCCOCCOCCC(=O)NCCCC[C@H](NC(=O)[C@H](CC(=O)O)NC(=O)[C@H](CC(C)C)NC(=O)[C@H](Cc1ccc(O)cc1)NC(=O)[C@H](CCCCN)NC(=O)[C@H](CO)NC(=O)[C@H](Cc1ccc(O)cc1)NC(=O)[C@H](CC(=O)O)NC(=O)[C@H](CO)NC(=O)[C@@H](NC(=O)[C@H](Cc1ccccc1)NC(=O)[C@@H](NC(=O)CNC(=O)[C@H](CCC(N)=O)NC(=O)[C@@H](CO)NC(=O)[C@@H](N)Cc1c[nH]cn1)[C@@H](C)O)[C@@H](C)O)C(=O)N[C@@H](CCCNC(=N)N)C(=O)N[C@@H](CCCNC(=N)N)C(=O)N[C@@H](C)C(=O)N[C@@H](CCC(N)=O)C(=O)N[C@@H](CC(=O)O)C(=O)N[C@@H](Cc1ccccc1)C(=O)N[C@H](C(=O)N[C@@H](CCC(N)=O)C(=O)N[C@@H](Cc1c[nH]c2ccccc12)C(=O)N[C@@H](CC(C)C)C(=O)N[C@@H](CC(C)C)C(=O)N[C@@H](CC(N)=O)C(=O)N[C@H](C(=O)NCC(=O)NCC(=O)N1CCC[C@H]1C(=O)N[C@@H](CO)C(=O)N[C@@H](CO)C(=O)NCC(=O)N[C@@H](C)C(=O)N1CCC[C@H]1C(=O)N1CCC[C@H]1C(=O)N1CCC[C@H]1C(=O)N[C@@H](CO)C(N)=O)[C@@H](C)O)C(C)C)C(=O)O", "test system": "C57BL/6J mouse CCl4 model", "setting": "dose not given", "measurement": "serum ALT and AST", "result": "decreased"}
{"SMILES": "CC[C@H](C)[C@H](NC(=O)[C@H](Cc1c[nH]c2ccccc12)NC(=O)[C@H](CCCNC(=N)N)NC(=O)[C@H](CCCCN)NC(=O)[C@H](CC(C)C)NC(=O)[C@H](CC(=O)O)NC(=O)[C@H](Cc1ccccc1)NC(=O)[C@H](C)NC(=O)[C@H](Cc1ccc(O)cc1)NC(=O)[C@H](CC(N)=O)NC(=O)[C@H](Cc1ccc(O)cc1)NC(=O)[C@H](CCCNC(=N)N)NC(=O)[C@H](Cc1ccc(O)cc1)NC(=O)[C@H](Cc1ccc(O)cc1)NC(=O)[C@@H](NC(=O)[C@H](CC(C)C)NC(=O)[C@H](C)NC(=O)[C@H](CC(N)=O)NC(=O)[C@H](Cc1ccc(O)cc1)NC(C)=O)[C@@H](C)CC)C(=O)N[C@@H](Cc1ccc(O)cc1)C(=O)N[C@@H](CC(C)C)C(N)=O", "assay": "measured: HA-02 tetramer", "test system": "antigen-experienced tetramer+ CD4 T cells, healthy adults, HLA-DRB1*0101", "setting": "dose not given", "measurement": "α4β7− CCR9+ cells", "result": "9.09%"}
{"SMILES": "COC[C@@H](NC(C)=O)C(=O)NCc1ccc(OCc2ccccc2)cc1", "assay": "formalin test, phase II", "test system": "mouse", "setting": "ip, 5.8 mg/kg", "how to read": "reference: vehicle", "measurement": "licking time", "result": "52%"}
{"note": "Some of these lines once more:"}
{"SMILES": "CS(C)(=O)=Nc1ccc(-c2ccc(-c3nc4cc(O[C@@H]5CO[C@H]6[C@@H]5OC[C@H]6O)[nH]c4cc3F)cc2)cc1", "test system": "ob/ob mouse, AMLN diet NASH model", "setting": "oral, 5 mg/kg daily, 8 weeks", "how to read": "reference: vehicle", "measurement": "plasma cholesterol", "result": "no effect"}
{"SMILES": "O=C(/C=C/c1ccc(O)cc1)OC[C@H]1O[C@@H](Oc2cc(O)c3c(=O)cc(-c4ccc(O)cc4)oc3c2)[C@H](O)[C@@H](O)[C@@H]1O", "assay": "ABTS scavenging, absorbance", "setting": "15 min", "measurement": "IC50", "result": "42.6 µM"}
